Experimental data from different studies.
Protocols differ between the studies behind these lines. “And” joins repeats or separate records; there may be more than shown. Numbers after ± are the reported error.
PFF0160c E182D: Dihydroorotate dehydrogenase (quinone), mitochondrial (PFF0160c, Plasmodium falciparum, UniProt Q08210, E182D)
ACHE: Acetylcholinesterase (ACHE, Homo sapiens, UniProt P22303)
UniProt P27361, sequence (whole entry, looked up): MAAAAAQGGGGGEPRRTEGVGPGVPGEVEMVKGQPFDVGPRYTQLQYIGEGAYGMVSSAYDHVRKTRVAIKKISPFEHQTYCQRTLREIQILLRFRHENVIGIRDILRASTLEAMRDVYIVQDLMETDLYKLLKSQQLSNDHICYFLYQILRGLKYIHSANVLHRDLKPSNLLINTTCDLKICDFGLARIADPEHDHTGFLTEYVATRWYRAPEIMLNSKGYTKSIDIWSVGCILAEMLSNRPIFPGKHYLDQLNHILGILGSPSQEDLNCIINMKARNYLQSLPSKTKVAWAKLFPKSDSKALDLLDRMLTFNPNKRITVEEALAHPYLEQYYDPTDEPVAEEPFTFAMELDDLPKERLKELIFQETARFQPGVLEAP
UniProt P22303, sequence (whole entry, looked up): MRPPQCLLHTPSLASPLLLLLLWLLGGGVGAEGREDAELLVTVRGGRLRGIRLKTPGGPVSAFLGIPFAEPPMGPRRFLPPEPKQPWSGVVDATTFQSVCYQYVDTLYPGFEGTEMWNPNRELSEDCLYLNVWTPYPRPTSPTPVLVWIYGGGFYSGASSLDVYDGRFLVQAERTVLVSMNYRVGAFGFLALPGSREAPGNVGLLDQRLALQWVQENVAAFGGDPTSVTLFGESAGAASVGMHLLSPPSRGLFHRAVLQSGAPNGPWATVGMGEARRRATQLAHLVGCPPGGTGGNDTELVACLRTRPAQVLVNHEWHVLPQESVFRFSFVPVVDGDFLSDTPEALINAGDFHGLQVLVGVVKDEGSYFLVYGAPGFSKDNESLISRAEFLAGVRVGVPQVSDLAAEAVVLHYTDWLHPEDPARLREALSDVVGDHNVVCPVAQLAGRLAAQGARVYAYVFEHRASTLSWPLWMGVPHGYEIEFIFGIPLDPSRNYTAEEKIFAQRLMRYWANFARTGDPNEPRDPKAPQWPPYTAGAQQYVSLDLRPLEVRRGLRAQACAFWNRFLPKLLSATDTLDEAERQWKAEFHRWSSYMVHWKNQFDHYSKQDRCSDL
UniProt P35348, sequence (whole entry, looked up): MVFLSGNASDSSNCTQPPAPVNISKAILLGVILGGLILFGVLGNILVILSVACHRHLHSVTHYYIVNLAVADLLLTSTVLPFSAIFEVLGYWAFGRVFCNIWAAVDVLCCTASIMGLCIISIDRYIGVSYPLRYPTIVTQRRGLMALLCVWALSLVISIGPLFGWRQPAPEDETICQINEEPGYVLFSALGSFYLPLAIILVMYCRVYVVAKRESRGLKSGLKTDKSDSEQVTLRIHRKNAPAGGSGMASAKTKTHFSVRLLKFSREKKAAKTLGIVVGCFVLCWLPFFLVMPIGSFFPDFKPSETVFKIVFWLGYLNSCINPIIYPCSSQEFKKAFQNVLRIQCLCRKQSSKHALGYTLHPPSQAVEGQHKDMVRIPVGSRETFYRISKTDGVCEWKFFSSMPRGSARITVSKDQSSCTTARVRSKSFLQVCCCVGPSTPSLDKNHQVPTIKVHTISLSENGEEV
UniProt O42275, sequence (whole entry, looked up): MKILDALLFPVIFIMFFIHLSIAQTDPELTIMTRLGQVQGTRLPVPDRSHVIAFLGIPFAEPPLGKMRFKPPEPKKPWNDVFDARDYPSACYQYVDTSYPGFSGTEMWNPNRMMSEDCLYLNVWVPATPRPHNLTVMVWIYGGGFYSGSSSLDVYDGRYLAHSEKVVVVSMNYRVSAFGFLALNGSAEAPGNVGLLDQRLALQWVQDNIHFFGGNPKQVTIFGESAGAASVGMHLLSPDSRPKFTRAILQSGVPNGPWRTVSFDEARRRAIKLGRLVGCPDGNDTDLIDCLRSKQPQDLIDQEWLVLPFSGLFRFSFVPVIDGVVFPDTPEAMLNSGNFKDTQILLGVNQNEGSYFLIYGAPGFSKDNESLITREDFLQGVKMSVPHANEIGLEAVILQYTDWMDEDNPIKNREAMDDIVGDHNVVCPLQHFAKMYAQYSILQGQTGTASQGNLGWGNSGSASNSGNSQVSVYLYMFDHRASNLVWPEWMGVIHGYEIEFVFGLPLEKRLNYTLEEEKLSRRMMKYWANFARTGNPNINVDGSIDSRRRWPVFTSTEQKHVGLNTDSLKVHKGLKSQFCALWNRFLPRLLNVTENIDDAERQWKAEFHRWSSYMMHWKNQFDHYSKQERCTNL
UniProt P36873, sequence (whole entry, unmodified, looked up): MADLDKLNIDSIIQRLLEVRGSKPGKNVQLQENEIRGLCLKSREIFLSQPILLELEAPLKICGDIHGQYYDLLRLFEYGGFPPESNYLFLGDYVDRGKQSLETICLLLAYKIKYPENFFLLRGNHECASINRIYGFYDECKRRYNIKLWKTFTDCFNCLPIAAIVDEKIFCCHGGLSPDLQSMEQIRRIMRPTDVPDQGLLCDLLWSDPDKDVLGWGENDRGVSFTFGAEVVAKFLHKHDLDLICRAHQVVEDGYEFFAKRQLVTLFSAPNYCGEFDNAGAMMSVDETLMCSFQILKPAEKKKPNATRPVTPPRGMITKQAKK
UniProt P06493, sequence (whole entry, looked up): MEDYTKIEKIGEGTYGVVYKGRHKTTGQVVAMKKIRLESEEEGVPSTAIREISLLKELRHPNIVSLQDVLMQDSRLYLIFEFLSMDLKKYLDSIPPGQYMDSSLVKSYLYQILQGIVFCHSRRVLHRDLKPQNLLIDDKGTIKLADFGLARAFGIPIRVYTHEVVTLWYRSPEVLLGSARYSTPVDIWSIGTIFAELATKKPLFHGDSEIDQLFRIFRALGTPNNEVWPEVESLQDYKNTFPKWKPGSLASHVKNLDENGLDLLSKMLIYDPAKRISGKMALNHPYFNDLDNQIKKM
UniProt P25440, sequence (whole entry, unmodified, looked up): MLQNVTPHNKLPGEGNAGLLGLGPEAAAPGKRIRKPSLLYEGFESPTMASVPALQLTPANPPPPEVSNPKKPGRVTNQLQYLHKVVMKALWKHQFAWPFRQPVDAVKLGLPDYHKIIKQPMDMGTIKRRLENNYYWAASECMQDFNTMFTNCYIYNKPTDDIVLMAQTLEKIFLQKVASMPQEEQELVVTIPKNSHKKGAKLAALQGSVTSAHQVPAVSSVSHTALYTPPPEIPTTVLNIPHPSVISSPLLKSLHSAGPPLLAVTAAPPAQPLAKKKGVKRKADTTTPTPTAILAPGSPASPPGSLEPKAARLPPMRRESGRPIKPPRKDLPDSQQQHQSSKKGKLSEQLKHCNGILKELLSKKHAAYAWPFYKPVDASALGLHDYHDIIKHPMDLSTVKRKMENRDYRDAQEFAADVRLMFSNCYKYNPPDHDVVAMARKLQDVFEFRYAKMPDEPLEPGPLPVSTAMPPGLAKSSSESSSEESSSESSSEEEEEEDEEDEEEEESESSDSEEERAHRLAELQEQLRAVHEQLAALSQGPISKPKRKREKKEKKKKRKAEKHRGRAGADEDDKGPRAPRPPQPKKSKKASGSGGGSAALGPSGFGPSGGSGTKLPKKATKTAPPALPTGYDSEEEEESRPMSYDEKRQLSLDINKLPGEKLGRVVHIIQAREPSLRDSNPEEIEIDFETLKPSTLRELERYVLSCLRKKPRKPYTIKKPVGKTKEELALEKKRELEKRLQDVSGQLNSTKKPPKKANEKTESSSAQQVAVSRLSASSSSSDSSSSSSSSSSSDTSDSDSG
UniProt P00942, sequence (whole entry, unmodified, looked up): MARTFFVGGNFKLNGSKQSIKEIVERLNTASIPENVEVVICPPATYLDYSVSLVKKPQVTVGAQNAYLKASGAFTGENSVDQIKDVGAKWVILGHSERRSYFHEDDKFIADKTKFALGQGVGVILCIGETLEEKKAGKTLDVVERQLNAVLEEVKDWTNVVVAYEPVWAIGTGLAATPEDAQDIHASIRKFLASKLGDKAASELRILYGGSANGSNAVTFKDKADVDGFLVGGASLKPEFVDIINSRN
UniProt P12104, sequence (whole entry, unmodified, looked up): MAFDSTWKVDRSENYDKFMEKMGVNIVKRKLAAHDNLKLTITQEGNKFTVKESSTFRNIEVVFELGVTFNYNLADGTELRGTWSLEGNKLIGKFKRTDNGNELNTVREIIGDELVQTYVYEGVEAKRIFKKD
UniProt Q62351, sequence (whole entry, looked up): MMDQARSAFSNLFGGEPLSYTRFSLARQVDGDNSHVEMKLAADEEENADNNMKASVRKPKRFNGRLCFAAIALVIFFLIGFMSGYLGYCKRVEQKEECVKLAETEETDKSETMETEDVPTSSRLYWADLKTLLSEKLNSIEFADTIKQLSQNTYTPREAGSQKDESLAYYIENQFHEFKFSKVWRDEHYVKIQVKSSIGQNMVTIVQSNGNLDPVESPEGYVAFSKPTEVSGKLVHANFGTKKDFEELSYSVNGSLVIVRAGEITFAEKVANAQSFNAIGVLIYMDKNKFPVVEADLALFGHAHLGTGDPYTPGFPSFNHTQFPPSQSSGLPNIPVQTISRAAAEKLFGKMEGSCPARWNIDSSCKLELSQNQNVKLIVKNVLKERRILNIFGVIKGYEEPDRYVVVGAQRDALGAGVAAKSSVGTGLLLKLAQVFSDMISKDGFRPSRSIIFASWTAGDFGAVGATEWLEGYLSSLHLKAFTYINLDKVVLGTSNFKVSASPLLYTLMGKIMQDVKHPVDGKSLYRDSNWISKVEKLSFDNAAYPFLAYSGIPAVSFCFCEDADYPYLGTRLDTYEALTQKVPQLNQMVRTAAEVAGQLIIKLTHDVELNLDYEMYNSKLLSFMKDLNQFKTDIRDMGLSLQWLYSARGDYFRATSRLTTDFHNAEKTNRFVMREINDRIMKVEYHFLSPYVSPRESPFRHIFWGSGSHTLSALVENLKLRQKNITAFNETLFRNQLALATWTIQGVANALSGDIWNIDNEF
UniProt Q5I0K5, sequence (whole entry, looked up): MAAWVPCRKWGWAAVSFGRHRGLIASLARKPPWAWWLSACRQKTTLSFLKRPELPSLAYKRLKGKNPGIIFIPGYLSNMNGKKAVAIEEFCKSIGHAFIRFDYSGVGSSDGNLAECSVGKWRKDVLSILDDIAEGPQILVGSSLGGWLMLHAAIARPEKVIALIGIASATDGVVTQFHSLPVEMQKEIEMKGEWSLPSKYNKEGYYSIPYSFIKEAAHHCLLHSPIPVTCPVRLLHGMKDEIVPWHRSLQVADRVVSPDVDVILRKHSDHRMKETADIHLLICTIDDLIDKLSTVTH

O=S(=O)(F)Cc1ccccc1
koff (Nuclear receptor subfamily 2 group C member 2, ligand-binding domain (Homo sapiens, UniProt P49116); SPR imaging; 600 nM): 4.02e-07 s⁻¹

O=C(Nc1cccnn1)N1CCC(=Cc2cccc(Oc3ccc(C(F)(F)F)cn3)c2)CC1
inhibition (Sodium-dependent serotonin transporter (SLC6A4, Homo sapiens, UniProt P31645); radioligand binding, inhibitor; 50 µM, human, together with: [3H]paroxetine): 34%

Cc1ccc(N2CCc3c(-c4cc5cccnc5nc4C)cc(C)nc32)c(Cl)c1.O=C(O)C(F)(F)F.O=C(O)C(F)(F)F
IC50 ratio (PFF0160c E182D; enzyme activity, DCIP colorimetric; reference: E182D mutant over wild type): 0.1

COc1ccc(N2C(=O)N(c3c(C)cccc3Cl)Cc3cnc(Nc4ccc(C5CCN(C)CC5)cc4OC)nc32)nc1
inhibition (Cyclin-dependent kinase 1 (CDK1, Homo sapiens, UniProt P06493); kinase activity; 0.5 µM): 1.88%

CC(=O)c1cnc2ccc(-c3cc(Cl)c(O)c(Cl)c3)nc2c1N[C@H]1CC[C@H](CN(C)C)CC1
fold change of KD (BRI1 (Arabidopsis thaliana, UniProt O22476); binding, SPR; concentration not given; reference: FER): > 100

[2H]c1c([2H])c([C@]2([2H])CCCN2C(=O)C(C)(C)Oc2ccc3cn[nH]c3c2)c([2H])c([2H])c1C([2H])([2H])[2H]
remaining binding (Serine/threonine-protein kinase PRP4 homolog (PRPF4B, Homo sapiens, UniProt Q13523); KINOMEscan; 1 µM; reference: DMSO control): 71%

O=C(O[C@H]1C[C@H]2CC[C@@H](C1)[N+]21CCCC1)C(O)(c1ccccc1)c1ccccc1
activity class (ACHE; biochemical; concentration not given): inactive

c1ccc2c3c(ccc2c1)-c1cccc2cccc-3c12
fold change (Aryl hydrocarbon receptor (Danio rerio, UniProt Q9YGV3); reporter gene, agonist, luciferase reporter; ZF-4; 1.524 µM; reference: vehicle control): 1.55

CC(C)[C@@H](O)CC[C@@H](C)[C@H]1CC[C@H]2[C@@H]3CC=C4C[C@@H](O)CC[C@]4(C)[C@H]3CC[C@]12C
current response (Glutamate NMDA receptor; GRIN1/GRIN2B (GRIN1/GRIN2B, Homo sapiens, UniProt Q05586+Q13224, D552A); positive allosteric modulator, two-electrode voltage clamp; Xenopus oocytes expressing GluN1-D552A; 10 µM, 0.02% cremophor, together with: 100 µM glutamate and glycine; reference: without compound): 144 ± 9.2%

CC[C@@H]1/C=C/C=C/C[C@H](C)[C@H](O)[C@](C)(O)C(=O)[C@H](C)[C@@H](O)[C@H](C)C(=O)[C@H](C)[C@@H](O)[C@H](C)/C=C/C(=O)O[C@H]2[C@@H](C)[C@@H](CC1)O[C@@]1(CC[C@@H](C)[C@@H](C[C@H](C)O)O1)[C@@H]2C
maximum ATP hydrolysis reduction (ATP synthase (rhesus monkey); inhibitor; muscle membrane affinity column; concentration not given): ~60%

COc1c(O)cc2c3c1-c1cc4c(cc1CC3N(C)CC2)OCO4 (centres unmarked)
apparent Kb (Alpha-1A adrenergic receptor (ADRA1A, Homo sapiens, UniProt P35348); calcium flux, antagonist, FLIPR; CHO-K1; together with: norepinephrine): 0.255 µM

O=C(Nc1cccc(CN2CCN(C(=O)c3cccc(Cl)c3)CC2)c1)c1ccco1.O=C(O)C(F)(F)F
IC50 ratio (PFF0160c E182D; enzyme activity, DCIP colorimetric; reference: E182D mutant over wild type): 2.3

O=C(Nc1cnccc1Cl)N1CCN(Cc2ccc3c(c2)OC(F)(F)O3)CC1
inhibition (KATP channel, hamster; binding; 10 µM, together with: [3H]glyburide): 14%

O=C(O)COP(=O)(O)O
Ki ratio (TPI1 (Saccharomyces cerevisiae, UniProt P00942, S211G/Y208T); enzyme activity, competitive inhibitor, GPDH/NADH-coupled; pH 9.3, 25 °C, ionic strength 0.1 NaCl, together with: glyceraldehyde 3-phosphate substrate; reference: mutant over wild type): 7.6

CC1(C)CN(CCCCC(=O)N[C@H](Cc2ccc(O)c(I)c2)C(=O)N[C@H](Cc2ccccc2)C(=O)N[C@H](CCCCNC(=O)CCCCCCC(=O)NCCCC[C@H](NC(=O)N[C@@H](CCC(=O)O)C(=O)O)C(=O)O)C(=O)O)CC[N]2CC(C)(C)[S][Tc]2(=[O])[S]1 (some centres unmarked) [technetium-99m labelled]
Bmax (Glutamate carboxypeptidase 2 (FOLH1, Homo sapiens, UniProt Q04609); radioligand, saturation binding; LNCaP; 1 h, 37 °C, together with: [99mTc]TcO-6): 10.4 ± 6.2 pmol/mg

CC[C@H](C)[C@H](NC(=O)CNC(=O)[C@@H](N)CCCCN)C(=O)N[C@@H](CC(C)C)C(=O)N[C@@H](CCCCN)C(=O)N[C@@H](CCCNC(=N)N)C(=O)N[C@@H](CCC(=O)O)C(=O)N[C@@H](CCCCN)C(=O)N[C@@H](CCCNC(=N)N)C(=O)N[C@@H](CC(C)C)C(=O)N[C@@H](CCCNC(=N)N)C(=O)N[C@@H](CCCNC(=N)N)C(=O)N[C@@H](CCCCN)C(=O)N[C@@H](CC(N)=O)C(=O)N[C@H](C(=O)N[C@@H](Cc1c[nH]cn1)C(=O)N[C@@H](Cc1c[nH]c2ccccc12)C(=O)N1CCC[C@H]1C(=O)N[C@@H](CCC(=O)O)C(=O)N[C@@H](CCC(=O)O)C(=O)NCC(=O)N[C@@H](CCCCN)C(=O)N[C@@H](CC(C)C)C(=O)N[C@@H](CCCNC(=N)N)C(=O)N[C@@H](CCC(=O)O)C(=O)N[C@@H](Cc1ccc(O)cc1)C(=O)N[C@@H](Cc1ccccc1)C(=O)N[C@@H](Cc1ccc(O)cc1)C(=O)N[C@@H](Cc1ccccc1)C(=O)N[C@@H](CCC(=O)O)C(=O)N[C@@H](CC(C)C)C(=O)N[C@@H](CC(=O)O)C(=O)N[C@@H](CCC(=O)O)C(=O)N[C@@H](C)C(=O)N[C@@H](CCC(=O)O)C(=O)N[C@@H](CCCNC(=N)N)C(=O)N[C@H](C(=O)N[C@@H](CC(N)=O)C(=O)N[C@H](C(=O)O)C(C)C)C(C)C)C(C)C
ΔG (Serine/threonine-protein phosphatase PP1-gamma catalytic subunit (Homo sapiens, UniProt P36873); ITC; 25 °C): -11.5 ± 0.2 kcal/mol

CCOC(=O)COc1ccc2c(=O)c3ccccc3oc2c1
reaction velocity (Acetylcholinesterase (ache, Electrophorus electricus, UniProt O42275); enzyme activity; 0.84 µM, together with: substrate 3.45 mM; higher = faster reaction): 0.0027 a.u.

CC(=O)O.CCc1cc2c(cc1CC)CC(NC[C@@H](O)c1ccc(O)c3[nH]c(=O)ccc13)C2
IC50 ratio (PFF0160c E182D; enzyme activity, DCIP colorimetric; reference: E182D mutant over wild type): 0.8

C=C(C)[C@H]1CN[C@H](C(=O)O)[C@H]1CC(=O)O
activity (uncharacterized protein (Ixodes scapularis, UniProt A0A0N9E2I2); L-glutamate-like response, two-electrode voltage clamp; Xenopus laevis oocytes; 100 µM): inactive

COc1ccccc1Cn1ccnc1SCC(=O)Nc1cccc(C(F)(F)F)c1
IC50 ratio (PFF0160c E182D; enzyme activity, DCIP colorimetric; reference: E182D mutant over wild type): 6.5

COc1cc2nccc(Oc3ccc(NC(=O)c4cc5c(n(-c6ccccc6)c4=O)CCCC5=O)nc3)c2cc1OC
selectivity ratio (Tyrosine-protein kinase Lyn (LYN, Homo sapiens, UniProt P07948); cell viability, CellTiter-Glo; Ba/F3 expressing recombinant kinase; reference: LYN IC50 over AXL IC50): > 100

C[N+](C)(C)[C@@H](Cc1c[nH]c(=S)[nH]1)C(=O)[O-]
ΔH (Ergothioneine transport permease/ergothioneine binding protein EgtU, substrate-binding domain (egtU, Helicobacter pylori, UniProt B5Z7I3); ITC; 30 °C, substrate-binding domain): -3.92 ± 0.674 kcal/mol

O=C(O)Cn1c(=O)n(Cc2ccc(Br)cc2F)c(=O)c2ccc(Cl)cc21
fold change (Fatty acid-binding protein, intestinal (Homo sapiens, UniProt P12104, T55A); binding, affinity selection mass spectrometry; 100 nM, pooled screen; reference: other proteins): 20.1

COC(=O)[C@@]1(O)C[C@H]2O[C@]1(C)n1c3ccccc3c3c4c(c5c6ccccc6n2c5c31)C(=O)NC4
kinase activity (Mitogen-activated protein kinase 3 (MAPK3, Homo sapiens, UniProt P27361); ADP-Glo; 8.45 µM, together with: MBP substrate): 101% and 104% and 129%

COc1cc(Nc2ncc(F)c(Nc3ccc4c(n3)NC(=O)C(C)(C)O4)n2)cc(OC)c1OC
inhibition (Misshapen-like kinase 1 (MINK1, Homo sapiens, UniProt Q8N4C8); KINOMEscan; 10 µM, MINK): 72%

CC[C@@H](C)[C@@H](NC(=O)[C@@H](Cc1ccc(O)cc1)NC(=O)[C@H]1CCCN1C(=O)[C@@H](CCCNC(=N)N)NC(=O)[C@H](N)Cc1c[nH]cn1)C(=O)N[C@H](C)C(=O)N[C@H](Cc1c[nH]cn1)C(=O)N[C@H](CCCNC(=N)N)C(=O)N[C@H](CCCCNC(=O)c1cccc(S(=O)(=O)F)c1)C(=O)N[C@H](Cc1ccc(O)cc1)C(=O)N[C@H](CO)C(=O)N[C@H](Cc1ccccc1)C(N)=O
surface TFRC expression (Transferrin receptor protein 1 (Tfrc, Mus musculus, UniProt Q62351); flow cytometry; DC2.4; 48 h, pH 6, replicate 2, unit not given; reference: 0 h): 0.736

C[C@H]1CN(c2n[nH]c3nc(N[C@H]4CC[C@H](NS(=O)(=O)CCC(F)(F)F)CC4)ncc23)CCO1
relative abundance (Serine/threonine-protein kinase 17B (STK17B, Homo sapiens, UniProt O94768); inhibitor, Kinobeads competition profiling; 0.8 µM; reference: vehicle): 1.06

NP(N)(=O)NC(=O)c1ccc(F)cc1
activity class (ACHE; biochemical; concentration not given): inactive

CN(C(=O)n1cnc(-c2ccc[n+]([O-])c2)c1)C1CCCCC1
fold change (Palmitoyl-protein thioesterase ABHD10, mitochondrial (Abhd10, Rattus norvegicus, UniProt Q5I0K5); enzyme activity, ABPP; rat, brain; oral, 100 mg/kg/day, 28 days; reference: vehicle): -2.7

CC[C@H]1NC(=O)[C@@H]2CSC(=N2)[C@@H](Cc2ccccc2)N(C)C(=O)[C@@H]2CCCN2C(=O)[C@H](C(C)C)N(C)C(=O)[C@H](Cc2ccccc2)OC(=O)[C@H](C)[C@@H](C)NC(=O)[C@@H]([C@@H](C)O)NC(=O)[C@@H](CC(C)C)N(C)C(=O)[C@@H]2CSC1=N2
remaining activity (Dipeptidyl peptidase 8 (Homo sapiens, UniProt Q6V1X1); 20 µM; reference: solvent control): 23%

CC(=O)N[C@H](C(=O)N1C[C@H](O)C[C@H]1C(=O)NCc1ccc(-c2scnc2C)cc1)C(C)(C)SCCCCCCNC(=O)C[C@@H]1N=C(c2ccc(Cl)cc2)c2c(sc(C)c2C)-n2c(C)nnc21
ΔG (Bromodomain-containing protein 2, BD1 (BRD2, Homo sapiens, UniProt P25440, K107A/Q101K/V106E); ITC; 25 °C, BD1 KEA mutant, binary): -10.18 ± 0.06 kcal/mol

O=C(COC(=O)c1ccccc1Nc1cccc(C(F)(F)F)c1)Nc1ccc(F)cc1
selectivity ratio (Prostaglandin G/H synthase 2 (PTGS2, Homo sapiens, UniProt P35354); reference: COX-1 IC50 over COX-2 IC50): 2.61

Repeated from above:
Cc1ccc(N2CCc3c(-c4cc5cccnc5nc4C)cc(C)nc32)c(Cl)c1.O=C(O)C(F)(F)F.O=C(O)C(F)(F)F
IC50 ratio (PFF0160c E182D; enzyme activity, DCIP colorimetric; reference: E182D mutant over wild type): 0.1

COc1ccc(N2C(=O)N(c3c(C)cccc3Cl)Cc3cnc(Nc4ccc(C5CCN(C)CC5)cc4OC)nc32)nc1
inhibition (Cyclin-dependent kinase 1 (CDK1, Homo sapiens, UniProt P06493); kinase activity; 0.5 µM): 1.88%
